Measurements collected from several papers.
Several values in a cell are separate wells, animals, samples, runs or records. Numbers after ± are the reported error. Values after ≈ are worked out from the molar mass of the structure shown.
Sequence of UniProt Q16539 (whole entry, looked up): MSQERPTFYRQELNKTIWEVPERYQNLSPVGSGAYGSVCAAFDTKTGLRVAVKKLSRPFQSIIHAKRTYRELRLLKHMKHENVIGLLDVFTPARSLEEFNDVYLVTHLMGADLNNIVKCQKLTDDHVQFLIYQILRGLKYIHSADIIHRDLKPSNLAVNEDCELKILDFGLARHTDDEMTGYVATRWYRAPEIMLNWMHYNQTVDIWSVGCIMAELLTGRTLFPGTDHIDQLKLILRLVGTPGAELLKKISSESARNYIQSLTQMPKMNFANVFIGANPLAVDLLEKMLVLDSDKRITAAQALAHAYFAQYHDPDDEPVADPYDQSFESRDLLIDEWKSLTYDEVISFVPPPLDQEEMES

SMILES	tested on	test	test system	conditions	scale	quantity	value
Cc1ncsc1-c1ccc(C(C)NC(=O)C2CC(O)CN2C(=O)C(NC(=O)CCCCCCCCCCN2CCCC(Nc3ncc(Cl)c(Nc4ccccc4S(=O)(=O)C(C)C)n3)C2)C(C)(C)C)cc1 (stereo not shown)	22Rv1	RNA-seq, item: RAD51D mRNA	–	concentration not given	baseline: DMSO	log2 fold change	-1.41
C[n+]1cccc2cc(/C=N/NC(=O)c3cccc(C(=O)N/N=C/c4ccc5c(ccc[n+]5C)c4)c3)ccc21	myc22 MYC G4-DNA parallel	FRET melting	–	1 µM, K1 buffer, DNA 0.2 µM	–	ΔTm	5.8 ± 0.4 °C
Cc1nn(-c2cccc(N)c2)c(=O)c2cnc(Nc3ccc(N4CCNCC4)cc3)nc12	MAPK14 (Homo sapiens, UniProt Q16539)	kinase activity, inhibitor, SelectScreen kinase profiling	–	–	–	IC50	> 10000 nM
C=CC(=O)Nc1cccc(Cn2ncc3cnc(Nc4cnn(CCOC)c4)nc32)c1	human ABL1(Q252H)-nonphosphorylated	KINOMEscan	–	100 nM	baseline: control	binding	14%
CC(C)OCCOCc1ccc(OCC(O)CN(N=O)C(C)C)cc1 (stereo not shown)	Salmonella typhimurium	Ames test	TA1537	1580 µg/plate, without metabolic activation	baseline: solvent control	revertant fold increase	0.9 fold
CN1CCCNC(=O)c2cccc(c2)C(=O)NCCCN(C)CCCNc2cccc3c2C(=O)c2cccc(c2C3=O)NCCC1	SAS	RNA-Seq, item: NOSIP mRNA	–	1 µM, 6 h	baseline: untreated cells	log2 fold change	-0.658
O=C(N/N=C/c1ccc(C[n+]2ccccc2)cc1)c1cccc(C(=O)N/N=C/c2ccc(C[n+]3ccccc3)cc2)n1	myc22 MYC G4-DNA parallel	FRET melting	–	1 µM, K1 buffer, DNA 0.2 µM, added: ds26 10 µM	–	ΔTm	8.4 ± 0.6 °C
COC1CN([C@H]2CC[C@H]([C@@]3(C)Oc4c(Cl)cc(C(=O)NCc5c(SC)cc(C)[nH]c5=O)c(C)c4O3)CC2)C1	–	RNA-seq, item: NDRG2 mouse homolog	mouse, HT-1376 xenograft, whole blood	dose not given	baseline: vehicle	log2 fold change	0.622
CC(C)C[C@H](NC(=O)[C@H](Cc1ccc(O)cc1)NC(=O)[C@@H](CCCNC(=N)N)NC(=O)[C@@H](CO)NC(=O)[C@H](Cc1ccccc1)NC(=O)[C@H](CC1CCCCC1)NC(=O)[C@H](CC(=O)O)NC(=O)CN1CCN(CC(=O)O)CCN(CC(=O)O)CCN(CC(=O)O)CC1)C(=O)N[C@@H](Cc1c[nH]c2ccccc12)C(=O)N[C@@H](CO)C(=O)O [copper-64 labelled]	–	–	human, heart	concentration not given, 1 h	–	activity concentration	3580 Bq/mL and 5730 Bq/mL and 6720 Bq/mL and 4010 Bq/mL and 4070 Bq/mL and 5270 Bq/mL
O=C(N/N=C/c1cc[n+](CC2CC2)c2ccccc12)C(=O)N/N=C/c1cc[n+](CC2CC2)c2ccccc12	myc22 MYC G4-DNA parallel	FRET melting	–	1 µM, K1 buffer, DNA 0.2 µM	–	ΔTm	3.2 ± 0.5 °C
COc1cc(O)ccc1CCC(c1ccc(O)cc1)c1cc2c(c(C)c1O)OC(c1ccc(O)cc1)CC2 (mixture of isomers)	–	–	human blood	0.3 µM, added: A23187	–	EPA level	76700 ± 22000 pg/mL
O=C1C2CC3CC1CC(C(=O)N1CCN(c4ccc([N+](=O)[O-])c5ncccc45)CC1)(C3)C2	Salmonella typhimurium	Ames test	TA100	0.05 µg/well, with S9	baseline: vehicle	revertant fold increase	1
CNC(=O)C1CCCN(C(=O)C2CC3CCC2N3C(=O)[C@@H]2C[C@@H](O)CN2C(=O)NCc2cccc(Cl)c2F)C1 (mixture of isomers)	CYP2C19 (Homo sapiens, UniProt P33261)	enzyme activity, inhibitor, time-dependent inhibition	–	0.617 µM, preincubated with NADPH	baseline: negative control	remaining activity	103%
CNS(=O)(=O)Nc1nccc(Cc2c(C)c3ccc(Oc4ncccc4F)cc3oc2=O)c1F	COV644	cell viability, CellTiter-Glo	–	7 days	–	IC50	445 nM
C=C(NC(=O)c1csc(-c2nc3c(cc2O)-c2nc(cs2)C(=O)NC(C(C)O)C(=O)NC(=C(C)OC)c2nc(cs2)C(=O)NC2c4nc(cs4)C(=O)NC(COC(=O)c4c5c6c(cccc6n4O)COC(=O)C(OC4CC(C)(O)C(N(C)C)C(C)O4)C2OC5)c2nc-3cs2)n1)C(N)=O (stereo not shown)	Staphylococcus epidermidis	microbial growth	MRSE	clinical isolate	–	MIC90	0.0156 µg/mL (≈ 0.0109 µM)
Nc1ncc(-c2cc(-c3cnn(CC(F)(F)F)c3)ncc2F)nc1C(=O)NC1CNCC(F)C1 (stereo not shown)	MAST1	KINOMEscan	–	1 µM	baseline: DMSO control	remaining binding	80%
